Measured values from different studies.
Each numbered part is a random draw from the data of one study; scales do not carry over between parts.

Study 1
Target: Transcription factor SOX-2, HMG box (Sox2, Mus musculus, UniProt P48432, residues 41-119)
UniProt P48432, sequence (41-119, looked up): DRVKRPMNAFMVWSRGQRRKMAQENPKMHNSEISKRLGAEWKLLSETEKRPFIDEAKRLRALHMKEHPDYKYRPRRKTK
Technique: Spec-seq
Molecule type: double-stranded DNA, one strand shown
Medium: in vitro
Concentration: not given
Notes: whole probe, mean of replicates
Relative to: not given
Reading: lower = stronger binding
Measurement: relative binding energy
Shared flanks, not repeated: GAGTCGTCTCGTCAGCAC … CCGTAGAGCACTCAGGTC
CATTACT: -0.268 ln ratio
CATTATT: -2.15 ln ratio
AATCGTT: -1.62 ln ratio
CATTCGT: -0.215 ln ratio
CATGTGC: 0.573 ln ratio
GATCGTT: 1.05 ln ratio
CTGTGTT: -0.373 ln ratio
CTACGTT: 1.01 ln ratio

Study 2
Target: RING finger protein unkempt homolog, zinc fingers 1-6, GST-SBP tag (UNK, Homo sapiens, UniProt Q9C0B0, residues 30-357)
UniProt Q9C0B0, sequence (30-357, looked up): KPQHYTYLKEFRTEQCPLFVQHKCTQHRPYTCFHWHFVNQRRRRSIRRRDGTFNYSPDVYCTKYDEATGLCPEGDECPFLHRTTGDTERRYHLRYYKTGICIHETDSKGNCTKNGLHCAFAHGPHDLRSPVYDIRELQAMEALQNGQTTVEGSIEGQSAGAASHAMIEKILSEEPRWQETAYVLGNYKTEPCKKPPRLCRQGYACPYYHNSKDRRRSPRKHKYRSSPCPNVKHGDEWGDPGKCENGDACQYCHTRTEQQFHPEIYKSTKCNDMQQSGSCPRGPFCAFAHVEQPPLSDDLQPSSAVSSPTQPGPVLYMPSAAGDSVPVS
Technique: RNA Bind-n-Seq
Molecule type: RNA
Medium: in vitro
Concentration: not given
Notes: RNA with constant flanks, human and mouse sites, ends assumed
Relative to: input RNA pool
Reading: higher = stronger binding
Measurement: bound/input enrichment
Shared flanks, not repeated: GGGAGUUCUACAGUCCGACGAUC … CAACAGAGGAUUGAGCAUCA
CUUGAUUAUCUCAAGAGGGAAUGCGAGGCAAAAAGUGAAGUUAUGUUUUUUGCUGAUGCUACUAGCCACUUGGAAGAGAAGAAGAGGAAGAGGAAAAAGAGGGAGAAGUUGAUUCUAACG: 0.303 ratio
GUUCCAAAGUGAGGUCCCUCCCAAAGUUGUUUUCGUGUGAGGCAGAGAAAGCCACACUCUGAAUACAUUUUAUGUCUCAGGAAUUCACAUUCCAGGUUCAGGAAUUUUAUUCCAAAGUCC: 0.229 ratio
UGCACAGACCUCCUGAAUAAGGCCAACACGUAUGCAGAACAACAUUUUGCAGAUGUCGUACUUAGUGAAGAGUUUCUUAACCUCGGCAUCGAGCAGGUGUGCAGCUUAAUCUCCAGUGAU: 0.101 ratio
CUCUCAAUCAUGGAGAAAUUGGAAUUCUUCGAUUUUUCUUAUGACCUUAACCUGUGUGGGCUGACAGAGGACCCAGAUCUUCAGGUUUCUGCGAUGCAGCACCAGACAGUGCUGGAACUG: 0.178 ratio
GGACAUCUCCAGUCAGAAAGUGGAGCUGUUCCAAAAAGAAAAGACCCCUUAACACACACUAGUAAUUCACUGCCUCGUUCAAAAACAGUUAUGAAAACUGGAUCUGCAGGCCUUUCAGGC: 1.63 ratio
GAUAAUAAAAUGGGCAUAACCCCGCUUAGAAAUUAUCACCCCAUUGUAGUUCCCGGACUGGGGCGUUCUCUAGGAUUUCUGCCCAAAAUGCCUCGCCUGCGGGUGGUCCACAUGUUUCUG: 0.737 ratio
GAGUUCCCAGAGAAUGUACUUUUGCUUUGUCAUACUUAUCCUUGUUAUAUUUAAACAAUCUAGUACCCAAAAAAUGUGGGCCGUACUUUCUAGUGAGUCUAAGGAAAAGUCAUCUUUGAU: 0.526 ratio
AAAUUUAGAGCAUGUUUAAAGAUUCUCACAGUAGAACUUCGUACUUUAUCUACUGGCUAUGAAAUAGAUGGUGGAAAAUUGCGUUACCAACUAUACCACUGGCUUGAAAAAGAGGUGAUA: 0.517 ratio

Study 3
Target: Prothrombin, mature alpha-thrombin (F2, Homo sapiens, UniProt P00734)
Technique: aptamer microarray, sandwich
Molecule type: DNA with 2'F-ANA
Medium: in vitro
Concentration: 200 nM
Notes: whole 15-mer aptamer, many near background
With: Cy3 exosite-II aptamer, 400 nM
Reading: higher = stronger binding
Measurement: mean fluorescence intensity
Strand: GGTTGGTGTGGTTGG
2'F-ANA at 2 3 4 5 6 8 9 10 12 14 15: 51.3 a.u.
2'F-ANA at 2 5 9 13 15: 51.1 a.u.
2'F-ANA at 2 4 9 10 11 14: 65.8 a.u.
2'F-ANA at 1 2 3 5 7 8 11 13: 53.8 a.u.
2'F-ANA at 1 2 6 7 9 10 11 12 13 14: 50.3 a.u.
2'F-ANA at 1 3 7 9 10 15: 89.8 a.u.
2'F-ANA at 2 4 10 11 12 14: 65.7 a.u.
2'F-ANA at 6 8 9 10 15: 151 a.u.

Further values, each from its own experiment
CCN1CCC[C@H]1CNC(=O)c1cc(S(N)(=O)=O)ccc1OC — viability (A-375; 100 µM, 18 h): 105%

Some of these lines once more (study 3):
2'F-ANA at 1 3 7 9 10 15: 89.8 a.u.
2'F-ANA at 2 4 10 11 12 14: 65.7 a.u.
2'F-ANA at 6 8 9 10 15: 151 a.u.
